Experimental data pooled from the literature.
Lines come from different studies, so protocols differ.
Target: Kappa-type opioid receptor (OPRK1, Homo sapiens, UniProt P41145)

Structure (SMILES)	test	setting	Ki [nM]
CC(C)C[C@H](NC(=O)[C@H](Cc1ccc2ccccc2c1)NC(=O)CNC(=O)[C@H](NC(=O)[C@@H](N)Cc1ccc(O)cc1)[C@H](C)O)C(=O)N[C@@H](CO)C(N)=O	ligand displacement, radioligand	pH 7.4, cell membranes	125
C[C@@H](Cc1ccsc1)NC(=O)NC[C@H](Cc1ccc(O)cc1)N(C)C	cell-free assay	–	24
Cc1cc(O)cc(C)c1CC(N)C(=O)NC1CCNc2c1cc(Cc1ccccc1)cc2C(F)(F)F (stereo not drawn)	ligand displacement, radioligand	cell membranes	29
C[C@@H](CN1CCC(Cc2ccccc2)CC1)[C@@H](O)c1ccc(O)cc1	cell-free assay	–	3100
CC(C)C[C@H](NC(=O)[C@H](Cc1cccc2ccccc12)NC(=O)CNC(=O)[C@H](NC(=O)[C@@H](N)Cc1ccc(O)cc1)[C@H](C)O)C(=O)N[C@@H](CO)C(N)=O	ligand displacement, radioligand	pH 7.4, cell membranes	25
Cc1cc(O)cc(C)c1CC(N)C(=O)NC1CCNc2ccc(CN3CCCCCC3)cc21 (stereo not drawn)	ligand displacement, radioligand	cell membranes	3.6
Cc1cc(O)cc(C)c1C[C@H](N)C(=O)N[C@@H](C(=O)NCC(=O)N[C@@H](Cc1ccc2ccccc2c1)C(=O)N[C@@H](CC(C)C)C(=O)N[C@@H](CO)C(N)=O)[C@H](C)O	ligand displacement, radioligand	pH 7.4, cell membranes	2.3
Cc1cc(O)cc(C)c1C[C@H](N)C(=O)N1Cc2ccccc2C[C@H]1CN[C@@H](Cc1ccccc1)C(=O)N[C@@H](Cc1ccccc1)C(N)=O	ligand displacement, radioligand	cell membranes	3.9
Cc1cc(O)cc(C)c1CC(N)C(=O)NC1CCNc2c(CN3CCOCC3)cc(Cc3ccccc3)cc21 (stereo not drawn)	ligand displacement, radioligand	cell membranes	7.3
Cc1cc(O)cc(C)c1CC(N)C(=O)NC1CCNc2ccc(Cn3cncn3)cc21 (stereo not drawn)	ligand displacement, radioligand	cell membranes	450
Cc1cc(O)cc(C)c1CC(N)C(=O)NC1CCNc2c(Cc3ccccc3)cccc21 (stereo not drawn)	ligand displacement, radioligand	cell membranes	1500
Cc1cc(O)cc(C)c1CC(N)C(=O)NC1CCNc2ccc(Cc3cccnc3)cc21 (stereo not drawn)	ligand displacement, radioligand	cell membranes	66
CC(C)[C@H]1CC[C@@H](N2CC[C@@](C)(c3cccc(O)c3)[C@@H](C)C2)CC1	ligand displacement, radioligand	–	51.1
Cc1cc(O)cc(C)c1CC(N)C(=O)NC1CCNc2c(CCc3ccccc3)cc(Cc3ccccc3)cc21 (stereo not drawn)	ligand displacement, radioligand	cell membranes	27
Cc1cc(O)cc(C)c1CC(N)C(=O)NC1CCNc2ccc(CN3CCOCC3)cc21 (stereo not drawn)	ligand displacement, radioligand	cell membranes	170
CCOC(=O)c1cc(Cc2ccccc2)cc2c1NCCC2NC(=O)C(N)Cc1c(C)cc(O)cc1C (stereo not drawn)	ligand displacement, radioligand	cell membranes	47
Cc1cc(O)cc(C)c1CC(N)C(=O)NC1CCNc2ccc(Cc3ccc4c(c3)OCO4)cc21 (stereo not drawn)	ligand displacement, radioligand	cell membranes	21
CCCCC(=N)NCc1ccc2[nH]c3c(c2c1)CC1(O)C2Cc4ccc(O)c5c4C1(CCN2CC1CC1)C3O5 (stereo not drawn)	ligand displacement, radioligand	cell membranes	0.27

Repeated from above:
Structure (SMILES)	test	setting	Ki [nM]
CC(C)C[C@H](NC(=O)[C@H](Cc1cccc2ccccc12)NC(=O)CNC(=O)[C@H](NC(=O)[C@@H](N)Cc1ccc(O)cc1)[C@H](C)O)C(=O)N[C@@H](CO)C(N)=O	ligand displacement, radioligand	pH 7.4, cell membranes	25
Cc1cc(O)cc(C)c1CC(N)C(=O)NC1CCNc2c(Cc3ccccc3)cccc21 (stereo not drawn)	ligand displacement, radioligand	cell membranes	1500
Cc1cc(O)cc(C)c1CC(N)C(=O)NC1CCNc2ccc(Cc3ccc4c(c3)OCO4)cc21 (stereo not drawn)	ligand displacement, radioligand	cell membranes	21
